Published values gathered from unrelated publications.
Every numbered part comes from another study and shows a few of its results, in no order.

Study 1
Target: Prothrombin, mature alpha-thrombin (F2, Homo sapiens, UniProt P00734)
Method: aptamer microarray, sandwich
Form: DNA with 2'F-ANA
Sample: in vitro
Tested at: 200 nM
Notes: whole 15-mer aptamer, many near background
Together with: Cy3 exosite-II aptamer, 400 nM
Reading: higher = stronger binding
Strand: GGTTGGTGTGGTTGG
Modification	mean fluorescence intensity
2'F-ANA at 1 2 5 8 9 10 12 14 15	66.5 a.u.
2'F-ANA at 1 3 5 6 8 11 12 15	102 a.u.
2'F-ANA at 1 2 3 4 9 10 11 13 14	48.9 a.u.
2'F-ANA at 7 9 10 11 12 15	194 a.u.
2'F-ANA at 1 10 12 14	44.7 a.u.

Study 2
Target: Histone acetyltransferase KAT6A, both winged helices, GST fusion (KAT6A, Homo sapiens, UniProt Q92794, residues 1-181)
Method: protein binding microarray
Form: double-stranded DNA, one strand shown
Sample: in vitro
Tested at: not given
Notes: 8-mer, flanks averaged, mean of 2 arrays, mostly near background
Relative to: not given
Reading: higher = stronger binding
Target sequence (chain): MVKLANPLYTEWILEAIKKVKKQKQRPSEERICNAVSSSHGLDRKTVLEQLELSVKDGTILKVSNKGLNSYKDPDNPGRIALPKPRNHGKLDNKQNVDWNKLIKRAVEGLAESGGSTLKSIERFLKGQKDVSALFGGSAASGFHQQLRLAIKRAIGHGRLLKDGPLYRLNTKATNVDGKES
Strand	E-score
ACAGCCGA	0.0975
CCACGATC	0.00223
TCACGTCA	-0.0895
AGACGCGC	0.339
CGGAGTGA	0.111
ATGCGATA	0.0519
CCTGCGCA	0.0972

Study 3
Target: TAR DNA-binding protein 43, full length, His tag (TARDBP, Homo sapiens, UniProt Q13148, residues 1-414)
Method: RNA Bind-n-Seq
Form: RNA
Sample: in vitro
Tested at: 20 nM
Notes: 6-mer, flanks averaged, single round
Together with: 150 mM LiCl
Relative to: input library
Reading: higher = stronger binding
Strand	6-mer enrichment (R)
UUCCCG	0.935
GAUUAC	0.82
UCGGUA	0.943
CGUAGC	0.887
GGGCCG	1.15
AUGUGU	1.72
AAAUCG	0.832

Further values, each from its own experiment
Molecule	target	assay	test system	conditions	scale	endpoint	value
PhoQ, residues 284 288 289 292 302 303 SNGLAW	PhoP, residues 12 14 15 18 19 GHCSL (Escherichia coli, UniProt P23836)	Sort-seq, item: YFP reporter	E. coli	PhoQ-PhoP variant library, together with: 10 µM Mg2+	relative to: high Mg2+ state, higher = stronger signaling	fold induction	9.56
